Values quoted from earlier work as cited in several papers.
Lines come from different studies, so protocols differ. ± gives the spread as reported.

Structure (SMILES) = CCOP(=O)(CCCn1cc(Cn2c(=O)n(C(=O)c3ccccc3)c(=O)c3ccccc32)nn1)OCC; organism = Felid alphaherpesvirus 1; observed = viral replication; EC50 = 24000 nM
Structure (SMILES) = O=C(Nc1cc2nc(-c3ccc(F)c(F)c3)cn2cn1)N1CC[C@H](F)C1; organism = Trypanosoma brucei; EC50 = 20 nM
Structure (SMILES) = O=C1Cc2ccccc2C(=O)N1O; organism = hepatitis B virus; observed = viral replication; cell line = HepDES19; strain = genotype D; EC50 = 4200 nM
Structure (SMILES) = Cc1cn(C2C=CC(COP(=O)(O)OP(=O)(O)OP(=O)(O)O)O2)c(=O)[nH]c1=O (centres unmarked); organism = HIV-2; observed = viral replication; cell line = CEM/TK− (thymidine kinase-deficient); EC50 = > 100000 nM
Structure (SMILES) = Cc1cc(C#N)cc(C)c1Oc1ccnc(Nc2ccc(CN3CCOCC3)cc2)n1; organism = HIV-1; observed = viral replication; strain = wild type; EC50 = 11 nM
Structure (SMILES) = Cc1nc(N(C)C(=O)Cc2ccc(-c3ccccc3)cc2)sc1S(=O)(=O)NCC(F)(F)F; organism = herpes simplex virus 1; observed = viral replication; EC50 = 50 nM
Structure (SMILES) = O=c1c(O)ccccc1O; organism = hepatitis B virus; observed = viral replication; EC50 = 1700 nM
Structure (SMILES) = Cc1cc(C#N)cc(C)c1Oc1nc(NC2CCN(Cc3ccc(S(N)(=O)=O)cc3)CC2)nc2ccsc12; organism = HIV-2; observed = viral replication; technique = MTT; cell line = MT-4; strain = ROD; EC50 = ≥ 228000 nM
Structure (SMILES) = Cc1nc(N(C)C(=O)Cc2ccc(-c3ccccc3)cc2)sc1S(=O)(=O)NCCN; organism = herpes simplex virus 1; observed = viral replication; EC50 = 100 nM
Structure (SMILES) = O=C(Nc1nc2cc(F)c(F)cc2s1)c1sc(Br)cc1Br; organism = Norovirus; observed = antiviral activity; EC50 = 530 nM
Structure (SMILES) = Cc1cc(/C=C/C#N)cc(C)c1Nc1nc(Nc2ccc(C#N)cc2)ncc1N; organism = HIV-1 wild type; observed = viral replication; technique = single-round infection; EC50 = 0.5 ± 0.1 nM
Structure (SMILES) = CC(C)n1nc(-c2cnc3cc(OC4CC4)ccc3c2)c(C(N)=O)c1N; organism = Toxoplasma gondii; EC50 = 420 nM
Structure (SMILES) = CNS(=O)(=O)c1sc(N(C)C(=O)Nc2ccc(-c3ccccc3)cc2)nc1C; organism = herpes simplex virus 2; observed = viral replication; EC50 = 5 nM
Structure (SMILES) = CNC(=O)C(Cc1ccccc1)NC(=O)C(O)(Cc1ccccc1)CN(Cc1ccc(Br)cc1)NC(=O)C(NC(=O)OC)C(C)(C)C (centres unmarked); organism = HIV-1; observed = viral replication; cell line = MT-4; EC50 = > 10000 nM
Structure (SMILES) = Cc1nc(N(C)C(=O)Cc2ccc(-n3cccn3)cc2)sc1S(N)(=O)=O; organism = herpes simplex virus 1; observed = viral replication; EC50 = 10 nM
Structure (SMILES) = Fc1cccc(COc2ccc(Nc3ncnc4ccc(-c5cccc(N6CCOCC6)c5)cc34)cc2Cl)c1; organism = Leishmania major; setting = intracellular amastigotes; EC50 = > 8000 nM
Structure (SMILES) = Cc1nc(N(C)C(=O)Cc2ccc(-c3cccnc3)cc2)sc1S(N)(=O)=O; organism = herpes simplex virus 2; observed = viral replication; EC50 = 5 nM
Structure (SMILES) = CNC(=O)C(NC(=O)C(O)(Cc1ccccc1)CN(Cc1ccc(Br)cc1)NC(=O)C(NC(=O)OC)C(C)(C)C)C(C)(C)C (centres unmarked); organism = HIV-1; observed = viral replication; cell line = MT-4; EC50 = > 10000 nM
Structure (SMILES) = Cc1nc(N(C)C(=O)Nc2ccc(-c3ccccc3)cc2)sc1S(=O)(=O)NC1CC1; organism = herpes simplex virus 1; observed = viral replication; EC50 = 20 nM
Structure (SMILES) = CN1CCN(c2ccc(-c3cc(-c4ccc(C5NC(=O)c6ccccc6N5)cc4)nc(N)n3)cc2)CC1 (centres unmarked); organism = Leishmania donovani; strain = intracellular amastigotes; EC50 = 650 nM

Some of these lines once more:
Structure (SMILES) = CC(C)n1nc(-c2cnc3cc(OC4CC4)ccc3c2)c(C(N)=O)c1N; organism = Toxoplasma gondii; EC50 = 420 nM
Structure (SMILES) = CNS(=O)(=O)c1sc(N(C)C(=O)Nc2ccc(-c3ccccc3)cc2)nc1C; organism = herpes simplex virus 2; observed = viral replication; EC50 = 5 nM
Structure (SMILES) = CNC(=O)C(Cc1ccccc1)NC(=O)C(O)(Cc1ccccc1)CN(Cc1ccc(Br)cc1)NC(=O)C(NC(=O)OC)C(C)(C)C (centres unmarked); organism = HIV-1; observed = viral replication; cell line = MT-4; EC50 = > 10000 nM
